Measured values collected from several papers.
Each numbered part is a random draw from the data of one study; scales do not carry over between parts. Positions count from the first letter of the parent shown.

Study 1 — technique: protein-binding microarray; molecule type: double-stranded DNA, one strand shown; sample: in vitro; concentration: 250 nM; setting: 60-bp whole probe; together with: salmon DNA 0.4 mg/ml; relative to: random background probes; reading: higher = stronger binding; quantity: log fluorescence; all sequences stand within: GCCTAGCAC … GTCTTGATTCGCTTGACGCTGCTG
Target: Interferon regulatory factor 5, full length, phosphomimetic (IRF5, Homo sapiens, UniProt Q13568-2, residues 1-514, K96S/S451D/S453D/S456D/S462D)
TCATTTATGTACTCTCTAACTGTGCTA: 0.839 z-score
TTAGGTTCCGGTTTCGGTTGGTGCTAG: 9.35 z-score
ATAGGTATCGGGTTTCGGTTAGTGCTA: 8.9 z-score
GACGATGTCAGTCTCGAGACGTGCTAG: -0.19 z-score
CACGGTATCGACACTGGGGACGTGCTA: 1.41 z-score
TAAGGTATCGGGTATCGGTTAGTGCTA: 5.82 z-score
TCATTTTTTAGCTTCTCACTGTGCTAG: 0.884 z-score
GACGGTATCGGTCTCAGGACGTGCTAG: 5.24 z-score

Study 2 — target: CCNE2, cyclin fold, Cln2 fusion (human); technique: yeast growth competition, sequencing; sample: yeast; setting: strong parent motif; relative to: not given; reading: higher = stronger binding; quantity: normalised enrichment score
Starting sequence: INSM1 docking peptide (human); PKAIRKLHFEDEV
PKAIRKLHFEDLV [E12L]: 2.06
PKAIRGLHFEDEV [K6G]: -0.257
PKAIRKLTFEDEV [H8T]: 2.25
PKAIRKLHFWDEV [E10W]: 0.751
PKAIVKLHFEDEV [R5V]: 0.0195
PKAIRKLHFEHEV [D11H]: 1.63
PKAIRKLHFEDKV [E12K]: 2.03
PKAIWKLHFEDEV [R5W]: -0.0674
PKAERKLHFEDEV [I4E]: -0.0746

Study 3 — technique: RNA Bind-n-Seq; molecule type: RNA; sample: in vitro; concentration: not given; relative to: input RNA pool; reading: higher = stronger binding; quantity: bound/input enrichment
Target: RING finger protein unkempt homolog, zinc fingers 1-6, GST-SBP tag (UNK, Homo sapiens, UniProt Q9C0B0, residues 30-357)
Sequence of UniProt Q9C0B0 (30-357, looked up): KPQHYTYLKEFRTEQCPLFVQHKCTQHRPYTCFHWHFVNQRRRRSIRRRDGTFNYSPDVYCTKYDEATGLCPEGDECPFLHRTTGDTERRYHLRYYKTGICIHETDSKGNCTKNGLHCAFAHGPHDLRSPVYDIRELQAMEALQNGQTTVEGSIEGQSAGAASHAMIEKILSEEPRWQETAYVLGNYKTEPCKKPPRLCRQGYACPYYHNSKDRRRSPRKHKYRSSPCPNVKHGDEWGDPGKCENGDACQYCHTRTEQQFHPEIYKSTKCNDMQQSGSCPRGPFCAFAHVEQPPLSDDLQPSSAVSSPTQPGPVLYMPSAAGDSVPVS
Setting: RNA with constant flanks, human and mouse sites, ends assumed
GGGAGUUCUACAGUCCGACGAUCAAAACAUGUAAAUCCAGUCUACUCUAUUGUCUUGUUUUGAUUAUACCAUCAGACACAUUGUAGUUGCUAGACGUAGUAUGAAGGCACAGGUGAUGGGGCAGUCCUAAAUUUCUGACUCUUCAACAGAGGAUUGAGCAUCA: 0.585 ratio
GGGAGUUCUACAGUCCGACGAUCUCUGCUCGGAAGAUGCGUCUGGGAGAUGCUGUUGAACAGGGUGUGAUUAACAACUCAGUAUUAGGCUAUUUUAUUGGCCGCAUCUACCUCUACCUCACGAAGGUUGGAAUAUCUCCUGAUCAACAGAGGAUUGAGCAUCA: 0.345 ratio
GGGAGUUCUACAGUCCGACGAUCAUAAGAAAUUUUCUGUGAAAUAUCCUUCCAUUGUUUAAGCUUUUGUUUUGGUCAUCUUUAUUUAGUUUGCAUGAAGUUGAAAAUUAAGGCAUUUUUAAAAAUUUUACUUCAUGCCCAUUUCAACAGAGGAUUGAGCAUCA: 1.59 ratio
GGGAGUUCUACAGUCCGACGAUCAUAAAGGCUAUGUUGAGUGGUCCAGGUCAGUUUGCUGAGAAUGAAACCAACGAGGUCAAUUUUAGAGAGAUCCCCUCACAUGUGCUAUCAAAAGUGUGCAUGUAUUUUACCUACAAGGUCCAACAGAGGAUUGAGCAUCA: 0.174 ratio
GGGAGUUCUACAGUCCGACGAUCUAUUCACAACUUGGAACAUUUGCACCAAUGUGGGAUGUAUUCAAAACAUCUACAGAGAAAUUAGCAAAUUGUCAUUUGGAUCUUGUUAGAAAAUUACAGGAAUUAAUAAAGGAAGUUCAGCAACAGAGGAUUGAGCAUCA: 2.7 ratio
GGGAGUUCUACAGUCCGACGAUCCGUGGCAUCCCCUGGAAGGAUGAGGCACAGGUAGUGAAGUGGGCCCUAGAGAAGCUGGAACUGACAAAGUAUGCAGACAAGCCAGCUGGCACCUACAGUGGAGGCAACAAACGGAAGCUUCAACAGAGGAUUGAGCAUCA: 0.147 ratio
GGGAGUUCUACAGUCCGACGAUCGAAAUGUAUGACUAUCAAGGCAGGUCCUACCUUCACAUACCUCAGGAUGUUGGUGUUAAUCUACGGUCAUCUGUGCCACCUGAAAAAUGUUACCUUCCCAAAAAACAAAUUCACGUGUGGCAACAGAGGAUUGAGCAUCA: 0.163 ratio
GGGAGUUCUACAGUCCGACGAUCCUUUUUGCAGGACUUAUGGUUAAAGUGCCAGUGGGGCUGUAUUUUUCCUGUAAAUUACUUCUUUUCCAAAGCUUGAUGUUAAUGUCCCCGGAAGACAGCGCUUUUUAUGCGACCAUUGUCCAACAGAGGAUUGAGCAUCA: 0.145 ratio
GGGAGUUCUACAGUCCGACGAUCAAGUUGAAAGAAAGGUCAAAGGCAUCUGGAGAUGAAAAUGAUAAUAUUGAGAUAGAUACUAACGAAGAGAUUCCUGAAGGCUUUGUUGUAGGAGGUGGAGAUGAACUUACUAAUAUAGAACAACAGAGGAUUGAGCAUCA: 2.12 ratio
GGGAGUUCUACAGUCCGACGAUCGCACCAAAAUAUCAGAUAGGAGAAAGAAUUCGAGUCAUCUUGGACAUGGAAGAUAAGACUUUAGCUUUUGAACGUGGAUAUGAGUUCCUGGGGGUUGCUUUUAGAGGACUUCCAAAGGUCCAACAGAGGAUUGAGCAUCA: 1.04 ratio
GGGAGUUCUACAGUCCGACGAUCCUCCAGGACUCAGUGAUGGAGGCCAGCAGAACAACCAUAGAAGAAUCAGCCAUGCCCCCACCACCCCCUCAAGGAGUUAAGCGGAAAGCCGGGCAAAUAGACCCAGAGCCUUCGAUACCUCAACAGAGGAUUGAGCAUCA: 1.3 ratio

Mixed results
PhoQ, residues 284 288 289 292 302 303 STVVAA
fold induction (PhoP, residues 12 14 15 18 19 YHFSH (Escherichia coli, UniProt P23836); Sort-seq, refers to: YFP reporter; E. coli; PhoQ-PhoP variant library, together with: 10 µM Mg2+; relative to: high Mg2+ state, higher = stronger signaling): 7.92

For quick reference, copied from above (study 2):
PKAIWKLHFEDEV [R5W]: -0.0674
PKAERKLHFEDEV [I4E]: -0.0746
